Published values pooled from the literature.
Every numbered part comes from another study and shows a few of its results, in no order. Substitutions count along the parent as printed.

Set 1
Target: Sal-like protein 4, full length isoform B (SALL4, Homo sapiens, UniProt Q9UJQ4-2, residues 1-616)
Method: universal PBM
Molecule type: double-stranded DNA, one strand shown
Matrix: in vitro
Tested at: not given
Setting: 8-mer, flanks averaged, mean of replicates
Direction: higher = stronger binding
Sequence	E-score
ATTAGACA	0.268
TATTTAAA	0.381
ATGCAGGC	-0.159
TACTGCAA	0.139
ACGCTCAA	-0.0823
CTATGACC	0.089
ACCATGAA	0.00867
AGGTGCGA	-0.225
CCTGATAC	0.145
AGCGGTCG	-0.288
ACAGCTAA	0.00073
ATCAAAGC	-0.0755
CTGTCAAG	-0.0786
CATGGAGA	0.0312
CACCTACA	-0.0802
AACTCTTA	-0.0115

Set 2
Target: JDP2, bZIP domain (human)
Method: DHFR protein complementation
Matrix: yeast
Setting: single substitutions, most at no-binding floor
Baseline: wild-type JUN-FOS pair
Direction: higher = stronger binding
Starting sequence: JUN, bZIP domain (human); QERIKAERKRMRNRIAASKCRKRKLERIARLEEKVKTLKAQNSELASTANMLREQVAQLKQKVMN; partner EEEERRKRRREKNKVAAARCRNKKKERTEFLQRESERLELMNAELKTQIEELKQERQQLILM
Variant	binding fitness [natural log]
A46Y	0.238
A46V	0.25
L52S	-0.743
E32P	0.0602
I28H	0.277
L52Q	-0.351
Q41F	-0.488
E33N	0.174
L45Q	-0.0095
E33T	0.266
S43E	0.317
T37G	0.328
Q41I	0.315
S43G	0.333
Q55G	0.175
K39S	0.269
L45H	0.101
K34W	0.482
A29S	0.243

Set 3
Target: CCNB2, cyclin fold, Cln2 fusion (human)
Method: yeast growth competition, sequencing
Matrix: yeast
Setting: weak parent motif
Baseline: not given
Direction: higher = stronger binding
Starting sequence: E2F1 docking peptide (human); PPVKRRLDLETDH
Variant	normalised enrichment score
PSVKRRLDLETDH [P2S]	0.182
PAVKRRLDLETDH [P2A]	0.093
PPVKRRLDLETDP [H13P]	0.331
NPVKRRLDLETDH [P1N]	0.412
PPVKRRGDLETDH [L7G]	0.208
PPVKRRLGLETDH [D8G]	0.936
PKVKRRLDLETDH [P2K]	0.781
PPVKRRIDLETDH [L7I]	0.554
PPVKRRYDLETDH [L7Y]	0.138
PPVKRRSDLETDH [L7S]	-0.0058
PFVKRRLDLETDH [P2F]	0.926
PPVKRRLDLETDN [H13N]	0.115
PPVKRRLDLSTDH [E10S]	0.44
PPVKRVLDLETDH [R6V]	0.0733
PPVKRRLDLETWH [D12W]	0.342
PPVKRRLDLETAH [D12A]	0.464
PPDKRRLDLETDH [V3D]	-0.381
PPVKRRLYLETDH [D8Y]	-0.21
PPVKRRLDLATDH [E10A]	0.353
PWVKRRLDLETDH [P2W]	0.095
PEVKRRLDLETDH [P2E]	0.505
WPVKRRLDLETDH [P1W]	0.864
PPVKRRPDLETDH [L7P]	0.222
PPVKRRLDLETCH [D12C]	0.383
PPVKRRLDLETKH [D12K]	0.38

Set 4
Target: Centromere-binding protein 1, full length, His-tagged (CBF1, Saccharomyces cerevisiae, UniProt P17106, residues 1-351)
UniProt P17106, sequence (whole entry, looked up): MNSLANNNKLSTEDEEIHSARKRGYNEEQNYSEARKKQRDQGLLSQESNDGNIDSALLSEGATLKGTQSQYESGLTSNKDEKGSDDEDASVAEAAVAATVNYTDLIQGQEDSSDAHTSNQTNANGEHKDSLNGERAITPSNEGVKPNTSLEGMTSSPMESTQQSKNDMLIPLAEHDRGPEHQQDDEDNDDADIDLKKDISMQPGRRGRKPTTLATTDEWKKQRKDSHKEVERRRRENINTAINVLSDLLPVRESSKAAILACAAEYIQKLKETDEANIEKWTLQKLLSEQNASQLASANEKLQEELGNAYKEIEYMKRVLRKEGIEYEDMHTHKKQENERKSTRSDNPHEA
Method: competition protein-binding microarray
Molecule type: double-stranded DNA, one strand shown
Matrix: in vitro
Tested at: 2 µM
Setting: whole 60-bp probe, lowest competitor level
Together with: Pho4 competitor, 0.05 µM
Direction: higher = stronger binding
Constant ends, left off below: … GTCTTGATTCGCTTGACGCTGCTG
Sequence	fluorescence intensity
CATACCCAACCTTGAAGGGTGGGTGAAGATATTTGT	59.1 a.u.
CTTTCCCGATCTTGCGAGGTGGGTGTAGCACATTTG	63.9 a.u.
TTGCACTAGACGAGTCACGTGGCCGTTAATCCCCCG	8630 a.u.
CAGTTCAACCTCACTCGCGTGCGGAGGTGTGAGGTG	62.6 a.u.
TGTAACAAGGAACAACGCGTGCTAACAAGCGGTAAT	102 a.u.
CGGGGTTAAGTTTGTCACAGCACTTGCTTGCAGCAG	58.7 a.u.
TCACAACAGATATCCCACATGAGGCAGCGCTACCCA	57.5 a.u.
AAATTACTAAGTTGGAAGGTGGGTGACGCCGTATGA	59.9 a.u.
ACAATAACTGGGAAACCGATCTCCTTGACAGCGGCC	66 a.u.
ATATTTTATCATCCACACGTGGTGATATTTCAACGA	998 a.u.
CAAGATTGCCATTTGCACGGGTAGCGCAAGTGAGAA	81.4 a.u.
CTTCTGTAAATTTGTGTGGTGGGTGGACGCGCCCCG	80.6 a.u.
TATACAGCTTTGCCAAGCGTGCGGAATAGGGAATAA	57.2 a.u.
TTTTTTTGCTACCAACACGTGCCAGTGGTTTAGGTA	1730 a.u.
ACTGGCTCTATTTTGCACGCAACTTGTGCAGCTTTA	85.5 a.u.
AAATTACTAAGTTGACTCGTGGGTGACGCCGTATGA	80.1 a.u.
CATACCCAACCTTTTCACGTGGCTTAAGATATTTGT	932 a.u.
CTGTGCCACCATTTGCACGTTGGCATCCGCGTCCTT	86.4 a.u.

Set 5
Target: PABPC1L2, full length, GST fusion (mouse, UniProt A0ABA7IW68)
Method: RNAcompete
Molecule type: RNA
Matrix: in vitro
Tested at: 20 nM
Setting: 7-mer, probes averaged, single round
Baseline: mean of 7-mers
Direction: higher = stronger binding
Residues (chain): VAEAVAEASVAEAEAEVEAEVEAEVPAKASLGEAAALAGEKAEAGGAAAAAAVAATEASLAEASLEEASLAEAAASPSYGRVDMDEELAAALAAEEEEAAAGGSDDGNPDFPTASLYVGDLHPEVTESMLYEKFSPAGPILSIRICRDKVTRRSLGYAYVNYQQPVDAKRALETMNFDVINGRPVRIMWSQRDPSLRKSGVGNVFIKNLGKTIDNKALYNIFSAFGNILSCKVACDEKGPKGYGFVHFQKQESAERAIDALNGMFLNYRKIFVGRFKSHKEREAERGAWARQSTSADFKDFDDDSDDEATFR
Sequence	7-mer Z-score
AUAUGAC	0.138
GCAGAUC	0.0334
UAUAGUC	-0.307
UCAACUU	-0.324
AUUUUCC	-0.356
ACGGCGA	0.119
CACAUUC	-0.307
UCAGGGC	-0.0174
UAUGACG	-0.0881
CGCUGGG	-0.0754
CAUGAGU	-0.182
UGCGUGU	-0.296
AGAAGAU	0.0932
UGACCGG	-0.139
GUGCGUC	-0.296
CGGCGCA	-0.17
AAAGUGC	1.5
AGCGCCA	-0.0446
GGGACCA	0.412
GACAUCA	-0.108

Set 6
Target: ABI1, truncated, D143A, DHFR fusion (Arabidopsis thaliana)
Method: DHFR PCA, deep sequencing
Matrix: yeast
Setting: methotrexate growth selection, single substitutions
Together with: (+)-ABA 710 µM
Baseline: wild-type fitted maximum
Direction: higher = stronger binding
Starting sequence: PYL1, truncated, DHFR fusion (Arabidopsis thaliana); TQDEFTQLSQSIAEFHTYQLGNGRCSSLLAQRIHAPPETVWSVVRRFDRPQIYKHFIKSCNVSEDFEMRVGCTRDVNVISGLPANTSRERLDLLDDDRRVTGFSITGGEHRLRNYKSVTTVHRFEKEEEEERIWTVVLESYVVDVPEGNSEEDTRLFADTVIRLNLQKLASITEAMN
Variant	relative binding score
N149E	67.3%
S63K	101%
P83I	11.3%
E131H	112%
T120H	25.2%
L138A	53.8%
Y53D	4.35%
V145L	92.7%
Q2L	96%
R113D	101%
I57T	77.7%
V161R	-4.68%
R49A	99.4%
N114I	4.15%
N77C	105%
M176S	103%
E67M	98.2%
L112H	-40.7%

A few entries again (set 3):
Variant	normalised enrichment score
PKVKRRLDLETDH [P2K]	0.781
PPVKRRSDLETDH [L7S]	-0.0058
PAVKRRLDLETDH [P2A]	0.093
PWVKRRLDLETDH [P2W]	0.095
PPVKRRLDLETAH [D12A]	0.464
PPVKRRLDLATDH [E10A]	0.353
PPVKRRPDLETDH [L7P]	0.222
PPVKRRLDLETDP [H13P]	0.331
PPVKRVLDLETDH [R6V]	0.0733
